{"data": "Measurements gathered from unrelated publications", "note": "Each numbered part is a random draw from the data of one study; scales do not carry over between parts.", "sequence of UniProt P11802 (whole entry, looked up)": "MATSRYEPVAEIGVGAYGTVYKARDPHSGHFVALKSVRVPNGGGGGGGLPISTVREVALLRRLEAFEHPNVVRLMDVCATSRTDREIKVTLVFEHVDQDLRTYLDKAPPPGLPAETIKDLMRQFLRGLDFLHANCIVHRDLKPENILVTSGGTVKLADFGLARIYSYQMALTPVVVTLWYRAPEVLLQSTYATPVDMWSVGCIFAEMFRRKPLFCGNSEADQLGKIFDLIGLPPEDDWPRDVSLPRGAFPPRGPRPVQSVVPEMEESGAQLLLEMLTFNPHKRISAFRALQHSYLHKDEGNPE", "sequence of UniProt P35916 (whole entry, looked up)": "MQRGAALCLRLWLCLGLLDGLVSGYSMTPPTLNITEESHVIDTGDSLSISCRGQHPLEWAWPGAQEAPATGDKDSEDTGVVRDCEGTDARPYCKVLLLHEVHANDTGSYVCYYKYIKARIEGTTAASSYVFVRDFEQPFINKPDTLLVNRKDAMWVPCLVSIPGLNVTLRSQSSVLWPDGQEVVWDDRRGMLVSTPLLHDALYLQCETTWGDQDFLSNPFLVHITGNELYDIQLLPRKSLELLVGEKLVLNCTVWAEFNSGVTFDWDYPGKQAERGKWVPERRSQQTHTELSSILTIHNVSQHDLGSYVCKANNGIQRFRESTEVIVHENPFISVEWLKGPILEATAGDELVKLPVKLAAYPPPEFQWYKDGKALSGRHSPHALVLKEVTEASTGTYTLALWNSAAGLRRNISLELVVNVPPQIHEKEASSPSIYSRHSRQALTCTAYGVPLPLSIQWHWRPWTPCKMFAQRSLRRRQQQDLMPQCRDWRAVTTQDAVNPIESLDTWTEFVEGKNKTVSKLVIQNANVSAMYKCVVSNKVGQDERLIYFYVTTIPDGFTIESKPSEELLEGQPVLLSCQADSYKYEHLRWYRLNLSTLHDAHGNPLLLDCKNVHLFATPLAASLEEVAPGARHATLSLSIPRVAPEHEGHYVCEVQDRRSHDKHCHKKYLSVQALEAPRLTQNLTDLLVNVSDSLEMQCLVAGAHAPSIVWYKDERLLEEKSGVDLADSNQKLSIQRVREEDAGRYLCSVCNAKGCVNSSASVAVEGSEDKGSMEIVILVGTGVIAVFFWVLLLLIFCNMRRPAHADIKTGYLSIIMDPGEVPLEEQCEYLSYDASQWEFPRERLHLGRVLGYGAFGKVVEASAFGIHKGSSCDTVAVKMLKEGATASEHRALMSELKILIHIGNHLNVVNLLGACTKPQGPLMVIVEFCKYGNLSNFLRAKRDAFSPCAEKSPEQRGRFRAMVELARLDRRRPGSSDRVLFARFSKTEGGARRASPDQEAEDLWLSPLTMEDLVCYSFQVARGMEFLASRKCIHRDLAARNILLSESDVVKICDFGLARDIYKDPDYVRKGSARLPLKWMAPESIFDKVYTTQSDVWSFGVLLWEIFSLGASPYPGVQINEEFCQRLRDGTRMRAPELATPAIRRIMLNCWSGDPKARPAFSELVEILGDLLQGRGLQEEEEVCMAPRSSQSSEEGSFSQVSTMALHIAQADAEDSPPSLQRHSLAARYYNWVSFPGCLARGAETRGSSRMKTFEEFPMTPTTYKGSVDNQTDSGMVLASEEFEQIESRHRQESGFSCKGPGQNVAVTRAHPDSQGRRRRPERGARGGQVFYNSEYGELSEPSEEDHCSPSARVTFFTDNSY", "sequence of UniProt P22455 (whole entry, looked up)": "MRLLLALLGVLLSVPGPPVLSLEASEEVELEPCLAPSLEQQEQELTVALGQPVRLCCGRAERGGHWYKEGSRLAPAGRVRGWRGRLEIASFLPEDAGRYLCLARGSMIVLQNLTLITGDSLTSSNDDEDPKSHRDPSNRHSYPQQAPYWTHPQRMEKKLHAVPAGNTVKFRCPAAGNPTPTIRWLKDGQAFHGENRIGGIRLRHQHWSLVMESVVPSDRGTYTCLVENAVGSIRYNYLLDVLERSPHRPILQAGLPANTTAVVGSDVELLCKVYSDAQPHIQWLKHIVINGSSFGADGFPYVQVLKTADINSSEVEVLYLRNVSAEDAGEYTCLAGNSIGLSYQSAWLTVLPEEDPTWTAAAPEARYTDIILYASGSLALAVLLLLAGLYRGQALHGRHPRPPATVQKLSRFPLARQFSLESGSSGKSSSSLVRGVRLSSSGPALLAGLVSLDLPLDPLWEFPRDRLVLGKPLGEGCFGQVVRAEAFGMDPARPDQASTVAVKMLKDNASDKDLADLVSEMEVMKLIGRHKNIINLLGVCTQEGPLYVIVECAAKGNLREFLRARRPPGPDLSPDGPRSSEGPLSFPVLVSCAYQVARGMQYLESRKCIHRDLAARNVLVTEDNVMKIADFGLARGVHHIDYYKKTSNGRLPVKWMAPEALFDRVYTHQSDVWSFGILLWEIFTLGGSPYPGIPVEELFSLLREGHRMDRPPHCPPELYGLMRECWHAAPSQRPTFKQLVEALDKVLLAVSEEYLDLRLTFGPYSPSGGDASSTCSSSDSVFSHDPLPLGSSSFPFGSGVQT", "sequence of UniProt P54646 (whole entry, looked up)": "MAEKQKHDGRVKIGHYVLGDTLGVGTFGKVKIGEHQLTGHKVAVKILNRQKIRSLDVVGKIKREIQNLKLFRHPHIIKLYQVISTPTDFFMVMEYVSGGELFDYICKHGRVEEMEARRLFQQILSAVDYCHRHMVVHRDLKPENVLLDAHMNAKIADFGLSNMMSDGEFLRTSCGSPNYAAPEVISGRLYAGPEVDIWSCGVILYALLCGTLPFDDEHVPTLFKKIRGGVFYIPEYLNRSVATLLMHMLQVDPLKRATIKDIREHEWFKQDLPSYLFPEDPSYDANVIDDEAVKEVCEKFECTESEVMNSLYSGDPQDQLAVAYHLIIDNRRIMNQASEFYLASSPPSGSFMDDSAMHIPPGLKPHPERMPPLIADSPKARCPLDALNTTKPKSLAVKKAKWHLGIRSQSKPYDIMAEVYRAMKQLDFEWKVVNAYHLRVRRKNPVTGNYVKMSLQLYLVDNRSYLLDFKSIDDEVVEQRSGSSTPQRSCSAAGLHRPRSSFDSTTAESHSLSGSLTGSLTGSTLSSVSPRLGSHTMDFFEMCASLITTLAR", "sequence of UniProt Q16659 (whole entry, looked up)": "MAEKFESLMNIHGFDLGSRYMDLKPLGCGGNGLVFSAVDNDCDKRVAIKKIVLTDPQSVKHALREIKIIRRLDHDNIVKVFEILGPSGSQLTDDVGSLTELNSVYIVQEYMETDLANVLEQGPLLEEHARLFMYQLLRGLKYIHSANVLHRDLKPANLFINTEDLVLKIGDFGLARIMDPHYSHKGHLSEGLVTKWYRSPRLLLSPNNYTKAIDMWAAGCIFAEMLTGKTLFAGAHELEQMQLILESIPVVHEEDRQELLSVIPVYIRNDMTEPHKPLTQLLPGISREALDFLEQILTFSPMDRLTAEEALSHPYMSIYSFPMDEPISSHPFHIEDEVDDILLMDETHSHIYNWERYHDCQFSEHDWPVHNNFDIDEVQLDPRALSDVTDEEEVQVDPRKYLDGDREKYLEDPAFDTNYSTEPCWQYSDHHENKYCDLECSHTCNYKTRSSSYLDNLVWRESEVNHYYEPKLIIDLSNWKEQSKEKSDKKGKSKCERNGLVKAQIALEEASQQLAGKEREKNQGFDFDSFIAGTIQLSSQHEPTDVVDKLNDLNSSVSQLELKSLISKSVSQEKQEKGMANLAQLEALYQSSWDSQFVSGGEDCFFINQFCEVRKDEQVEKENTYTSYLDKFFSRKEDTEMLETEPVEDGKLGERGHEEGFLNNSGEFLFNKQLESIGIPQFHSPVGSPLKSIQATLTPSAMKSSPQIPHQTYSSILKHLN", "sequence of UniProt P53667 (whole entry, looked up)": "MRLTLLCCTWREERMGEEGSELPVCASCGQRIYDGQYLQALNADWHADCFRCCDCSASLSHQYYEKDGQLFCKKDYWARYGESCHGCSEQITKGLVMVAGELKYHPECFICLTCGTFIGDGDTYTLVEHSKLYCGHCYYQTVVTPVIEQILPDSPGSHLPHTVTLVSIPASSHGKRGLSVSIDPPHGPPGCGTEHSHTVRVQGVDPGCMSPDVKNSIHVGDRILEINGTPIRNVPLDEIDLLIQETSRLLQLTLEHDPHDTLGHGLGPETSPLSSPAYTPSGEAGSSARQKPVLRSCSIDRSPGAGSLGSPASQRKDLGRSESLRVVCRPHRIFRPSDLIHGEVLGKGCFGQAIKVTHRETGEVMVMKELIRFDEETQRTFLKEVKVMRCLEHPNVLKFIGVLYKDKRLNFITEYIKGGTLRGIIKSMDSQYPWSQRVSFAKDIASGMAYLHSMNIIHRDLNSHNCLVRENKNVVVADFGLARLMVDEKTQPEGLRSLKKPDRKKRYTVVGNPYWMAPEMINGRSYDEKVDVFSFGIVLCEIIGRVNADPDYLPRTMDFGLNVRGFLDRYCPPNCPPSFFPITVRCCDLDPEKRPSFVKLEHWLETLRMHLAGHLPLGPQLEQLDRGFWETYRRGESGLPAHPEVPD", "sequence of UniProt P31749 (whole entry, looked up)": "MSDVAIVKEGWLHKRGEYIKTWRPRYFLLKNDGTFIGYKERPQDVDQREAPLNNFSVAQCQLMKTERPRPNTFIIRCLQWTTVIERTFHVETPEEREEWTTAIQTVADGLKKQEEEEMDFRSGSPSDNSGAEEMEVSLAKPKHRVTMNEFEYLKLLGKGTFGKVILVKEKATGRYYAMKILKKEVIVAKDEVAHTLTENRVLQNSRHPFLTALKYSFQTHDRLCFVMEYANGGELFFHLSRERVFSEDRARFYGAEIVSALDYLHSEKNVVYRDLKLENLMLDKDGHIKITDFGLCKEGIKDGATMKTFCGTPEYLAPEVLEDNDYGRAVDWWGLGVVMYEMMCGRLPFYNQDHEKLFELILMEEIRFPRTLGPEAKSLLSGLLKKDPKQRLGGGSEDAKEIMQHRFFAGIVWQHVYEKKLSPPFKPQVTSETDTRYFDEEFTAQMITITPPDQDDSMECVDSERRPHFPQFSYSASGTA"}
{"data": "Study 1", "Compound": "CCn1cnc2c(Nc3cccc(Cl)c3)nc(N[C@H]3CCCC[C@H]3N)nc21", "effect on": "enzyme activity", "mode": "inhibitor", "concentration": "0.5 µM", "relative to": "control"}
{"target": "PASK (Homo sapiens, UniProt Q96RG2)", "remaining activity [%]": 88}
{"target": "NEK11 (Homo sapiens, UniProt Q8NG66)", "remaining activity [%]": 101}
{"target": "FLT4 (Homo sapiens, UniProt P35916)", "remaining activity [%]": 105}
{"target": "FGR (Homo sapiens, UniProt P09769)", "remaining activity [%]": 45.8}
{"target": "LIM domain kinase 1 (LIMK1, Homo sapiens, UniProt P53667)", "remaining activity [%]": 108}
{"target": "HIPK1 (Homo sapiens, UniProt Q86Z02)", "remaining activity [%]": 97.5}
{"target": "PKN1 (Homo sapiens, UniProt Q16512)", "remaining activity [%]": 69.9}
{"target": "NLK (Homo sapiens, UniProt Q9UBE8)", "remaining activity [%]": 90.8}
{"data": "Study 2", "cell line": "Huh-7", "concentration": "10 µM", "time": "24 h"}
{"Structure (SMILES)": "CCOC(=O)CC(SP(=S)(OC)OC)C(=O)OCC (stereo not shown)", "viability [%]": 92.5}
{"Structure (SMILES)": "CC(NC(C)(C)C)C(=O)c1cccc(Cl)c1 (stereo not shown)", "viability [%]": 101}
{"Structure (SMILES)": "COP(=S)(OC)Oc1cc(Cl)c(Cl)cc1Cl", "viability [%]": 94}
{"Structure (SMILES)": "NC(=O)C[S+]([O-])C(c1ccccc1)c1ccccc1 (stereo not shown)", "viability [%]": 95.7}
{"Structure (SMILES)": "CN(C)C(=S)SSC(=S)N(C)C", "viability [%]": 58.4}
{"Structure (SMILES)": "CCCCOC(=O)c1ccccc1C(=O)OCCCC", "viability [%]": 97.8}
{"data": "Study 3", "SMILES": "CNC(=O)c1ccc(-c2cnn3ccc(C(=O)N(C)c4ccc(Cl)c(C(=O)OC)c4)cc23)cc1"}
{"target": "Phosphatidylinositol 4-kinase (Cryptosporidium parvum, UniProt Q5CVD3)", "test": "enzyme activity, inhibitor, ADP-Glo", "setting": "wild type", "IC50 [µM]": 0.00392}
{"target": "MAPKAPK2 (Homo sapiens, UniProt P49137)", "test": "enzyme activity, inhibitor", "IC50 [µM]": "> 30"}
{"target": "FGFR4 (Homo sapiens, UniProt P22455)", "test": "enzyme activity, inhibitor", "IC50 [µM]": "> 30"}
{"target": "RAF1 (Homo sapiens, UniProt P04049)", "test": "enzyme activity, inhibitor", "IC50 [µM]": "> 30"}
{"target": "Tribbles homolog 2 (TRIB2, Homo sapiens, UniProt Q92519)", "test": "enzyme activity, inhibitor", "IC50 [µM]": 3.48}
{"target": "RET (Homo sapiens, UniProt P07949)", "test": "enzyme activity, inhibitor", "IC50 [µM]": "> 30"}
{"target": "GSK3B (Homo sapiens, UniProt P49841)", "test": "enzyme activity, inhibitor", "IC50 [µM]": 19.1}
{"target": "CDK4 (Homo sapiens, UniProt P11802)", "test": "enzyme activity, inhibitor", "IC50 [µM]": "> 30"}
{"target": "MAPKAPK5 (Homo sapiens, UniProt Q8IW41)", "test": "enzyme activity, inhibitor", "IC50 [µM]": "> 30"}
{"target": "PKN2 (Homo sapiens, UniProt Q16513)", "test": "enzyme activity, inhibitor", "IC50 [µM]": "> 30"}
{"target": "SYK (Homo sapiens, UniProt P43405)", "test": "enzyme activity, inhibitor", "IC50 [µM]": "> 30"}
{"target": "MET (Homo sapiens, UniProt P08581)", "test": "enzyme activity, inhibitor", "IC50 [µM]": "> 30"}
{"target": "PRKACA (Homo sapiens, UniProt P17612)", "test": "enzyme activity, inhibitor", "IC50 [µM]": "> 30"}
{"target": "PRKAA2 (Homo sapiens, UniProt P54646)", "test": "enzyme activity, inhibitor", "IC50 [µM]": "> 30"}
{"target": "human phosphodiesterase 3", "test": "enzyme activity", "IC50 [µM]": "> 30"}
{"target": "SLK (Homo sapiens, UniProt Q9H2G2)", "test": "enzyme activity, inhibitor", "IC50 [µM]": "> 30"}
{"target": "PDE4D (Homo sapiens, UniProt Q08499)", "test": "cell-free assay, inhibitor", "IC50 [µM]": 2.22}
{"target": "EGFR (Homo sapiens, UniProt P00533)", "test": "enzyme activity, inhibitor", "IC50 [µM]": "> 30"}
{"data": "Study 4", "Compound": "Cn1cncc1[C@@](O)(COc1ccc(C#N)cc1-c1ccc(OC(F)(F)F)cc1)c1ccc(C#N)cc1", "effect on": "cell-free assay", "method": "competition with immobilised ligand", "concentration": "1 µM"}
{"target": "MAPK4 (Homo sapiens, UniProt P31152)", "remaining binding [%]": 90}
{"target": "WNK1 (Homo sapiens, UniProt Q9H4A3)", "remaining binding [%]": 100}
{"target": "DDR1 (Homo sapiens, UniProt Q08345)", "remaining binding [%]": 100}
{"target": "AKT1 (Homo sapiens, UniProt P31749)", "remaining binding [%]": 100}
{"target": "PAK2 (Homo sapiens, UniProt Q13177)", "remaining binding [%]": 96}
{"target": "ROCK1 (Homo sapiens, UniProt Q13464)", "remaining binding [%]": 100}
{"target": "GRK1 (Homo sapiens, UniProt Q15835)", "remaining binding [%]": 100}
{"target": "CDK4 (Homo sapiens, UniProt P11802)", "remaining binding [%]": 100}
{"target": "EPHB3 (Homo sapiens, UniProt P54753)", "remaining binding [%]": 6}
{"target": "MAPK6 (Homo sapiens, UniProt Q16659)", "remaining binding [%]": 93}
{"target": "CDPK1 (Plasmodium falciparum, UniProt P62344)", "remaining binding [%]": 75}
